# Experimental data gathered from unrelated publications.
# Protocols differ between the studies behind these lines. Several values in a cell are separate wells, animals, samples, runs or records. Numbers after ± are the reported error.
# Sequence of UniProt P49137 (whole entry, looked up): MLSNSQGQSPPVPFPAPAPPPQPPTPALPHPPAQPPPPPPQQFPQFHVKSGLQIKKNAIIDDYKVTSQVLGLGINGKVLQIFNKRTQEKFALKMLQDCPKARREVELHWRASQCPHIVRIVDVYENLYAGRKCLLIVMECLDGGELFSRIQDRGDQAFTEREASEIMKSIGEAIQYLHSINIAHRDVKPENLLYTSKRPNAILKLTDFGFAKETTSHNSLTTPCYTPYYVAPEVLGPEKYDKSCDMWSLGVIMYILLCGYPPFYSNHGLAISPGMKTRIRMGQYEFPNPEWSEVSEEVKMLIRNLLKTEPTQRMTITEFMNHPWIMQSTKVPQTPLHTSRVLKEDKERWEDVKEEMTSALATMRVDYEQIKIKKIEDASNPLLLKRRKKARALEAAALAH
SMILES,target or system,test,test system,setting,how to read,quantity,value
CC(C)C[C@@H](NC(=O)[C@@H](CC(C)C)NC(=O)[C@@H](CC(=O)O)NC(=O)[C@@H](CC(C)C)NC(=O)[C@@H](CC(C)C)NC(=O)[C@@H](CC(C)C)NC(=O)[C@H](NC(=O)[C@@H](CC(=O)O)NC(=O)[C@H](NC(=O)[C@H]1CCCN1C(=O)[C@@H](Cc1ccccc1)NC(=O)[C@@H](CC(C)C)NC(=O)[C@@H](CC(C)C)NC(=O)[C@@H](CC(=O)O)NC(=O)[C@@H](CC(C)C)NC(=O)[C@@H](Cc1ccc(O)cc1)NC(=O)[C@@H](C)NC(=O)[C@@H](CCCNC(=N)N)NC(=O)[C@@H](Cc1c[nH]c2ccccc12)NC(=O)[C@H]1CCCN1C(=O)[C@@H](CC(N)=O)NC(=O)[C@@H](CCC(N)=O)NC(=O)[C@@H](CC(=O)O)NC(=O)[C@@H](CC(=O)O)NC(=O)[C@@H](CSC1CC(=O)N(CCNC(=O)CN2CCN(CC(=O)O)CCN(CC(=O)O)CC2)C1=O)NC(=O)[C@@H](C)N)[C@H](C)O)[C@H](C)O)C(=O)N[C@H](Cc1c[nH]c2ccccc12)C(=O)O (stereo partly drawn) [fluorine-18 labelled],,,"female C57BL/6 mice, B16-F10 melanoma, blood","intravenous, 4 h",,tissue uptake,17.2 %ID/g
CNS(=O)(=O)Nc1nccc(Cc2c(C)c3ccc(Oc4ncccc4F)cc3oc2=O)c1F,ASPC1,cell viability,,7 days,,IC50,0.0106 µM
N#C[C@@H]1CC(F)(F)CN1C(=O)CNC(=O)c1ccnc2c(NC(=O)[C@H](CCCCNC(=O)CCOCCOCCOCCOCCOCCOCCNC(=O)CN3CCN(CC(=O)[O-])CCN(CC(=O)[O-])CCN(CC(=O)[O-])CC3)NC(=O)CCCc3ccc(I)cc3)cccc12.[177Lu+3],U-87 MG tumour model,,"host not given, muscle","24 h, tumour-bearing",,tracer uptake,0.94 %ID/g
O=C(N/N=C/c1ccc2c(ccc[n+]2Cc2ccccc2)c1)C(=O)N/N=C/c1ccc2c(ccc[n+]2Cc2ccccc2)c1,MYC parallel G4 DNA,FRET melting,,"1 µM, DNA 0.2 µM",,ΔTm,4.3 ± 0.7 °C
CC1=C/C(=N\N=C(/S)Nc2cccnc2)CC(C)(C)C1,Mus musculus,"gene silencing, high-content imaging",LDR reporter GFP cells,retest run 2,,AC50,31.6 µM
CCCC[C@H](NC(=O)CCCCCCCNC(=O)CN1CCN(CC(=O)O)CCN(CC(=O)O)CC1)C(=O)N[C@H]1CC(=O)NCCCC[C@@H](C(N)=O)NC(=O)[C@H](Cc2c[nH]c3ccccc23)NC(=O)[C@H](CCCNC(=N)N)NC(=O)[C@@H](Cc2ccccc2)NC(=O)[C@H](Cc2c[nH]cn2)NC1=O [technetium-99m labelled],,,"C57 mouse, skin","intravenous, 0.037 MBq, 0.5 h",,tissue uptake,1.48 ± 0.09 %ID/g
Cc1ncsc1-c1ccc(C(C)NC(=O)C2CC(O)CN2C(=O)C(NC(=O)CCCCCCCCCCN2CCCC(Nc3ncc(Cl)c(Nc4ccccc4S(=O)(=O)C(C)C)n3)C2)C(C)(C)C)cc1 (stereo not drawn),22Rv1,"RNA-seq, refers to: XRCC2 mRNA",,concentration not given,reference: DMSO,log2 fold change,-1.1
C(=N\Nc1nc(-c2ccccn2)nc2ccccc12)/c1ccccc1,Mus musculus,"gene silencing, high-content imaging",LDR reporter GFP cells,"confirmation, mean of two runs",,EC50,20 µM
Nc1ncc(-c2cc(-c3cnn(CC(F)(F)F)c3)ncc2F)nc1C(=O)NC1CNCC(F)C1 (stereo not drawn),OSR1,KINOMEscan,,1 µM,reference: DMSO control,remaining binding,100%
CCCC[C@H](NC(=O)COCCOCCNC(=O)CN1CCN(CC(=O)O)CCN(CC(=O)O)CC1)C(=O)N[C@H]1CC(=O)NCCCC[C@@H](C(N)=O)NC(=O)[C@H](Cc2c[nH]c3ccccc23)NC(=O)[C@H](CCCNC(=N)N)NC(=O)[C@@H](Cc2ccccc2)NC(=O)[C@H](Cc2c[nH]cn2)NC1=O [technetium-99m labelled],,,"C57 mouse, pancreas","intravenous, 0.037 MBq, 0.5 h",,tissue uptake,0.45 ± 0.15 %ID/g
C=C(NC(=O)c1csc(-c2nc3c(cc2O)-c2nc(cs2)C(=O)NC(C(C)O)C(=O)NC(=C(C)OC)c2nc(cs2)C(=O)NC2c4nc(cs4)C(=O)NC(COC(=O)c4c5c6c(cccc6n4O)COC(=O)C(OC4CC(C)(O)C(N(C)C)C(C)O4)C2OC5)c2nc-3cs2)n1)C(N)=O (stereo not drawn),,,"Sprague-Dawley rat, both sexes, plasma","intravenous infusion, 6 mg/kg single dose",,clearance,49 mL/min/kg
Cc1nn(-c2cccc(N)c2)c(=O)c2cnc(Nc3ccc(N4CCNCC4)cc3)nc12,"MAP kinase-activated protein kinase 2 (MAPKAPK2, Homo sapiens, UniProt P49137)","kinase activity, inhibitor, SelectScreen kinase profiling",,,,IC50,1.46 µM
CC(C)OCCOCc1ccc(OCC(O)CN(N=O)C(C)C)cc1 (stereo not drawn),Salmonella typhimurium,Ames test,TA1537,"15.8 µg/plate, without metabolic activation",reference: solvent control,revertant fold increase,1 fold
O=C(N/N=C/c1ccc2c(ccc[n+]2Cc2ccccc2)c1)c1cncc(C(=O)N/N=C/c2ccc3c(ccc[n+]3Cc3ccccc3)c2)n1,hp2 hairpin duplex DNA,FRET melting,,"1 µM, with: ds26 10 µM",,ΔTm,2.2 ± 0.1 °C
COc1ccccc1-c1ccncc1C(=O)Nc1nnc(OCc2ccc(Cl)cc2)s1,DLD-1 parental,,,"2 µM, mean of replicates",,colony count,79 and 79.5 and 69
CN1CCCNC(=O)c2cccc(c2)C(=O)NCCCN(C)CCCNc2cccc3c2C(=O)c2cccc(c2C3=O)NCCC1,SAS,"RNA-Seq, refers to: C12orf66 mRNA",,"1 µM, 6 h",reference: untreated cells,log2 fold change,2.31
C=CC(=O)Nc1cccc(Cn2ncc3cnc(Nc4cnn(CCOC)c4)nc32)c1,CDK7 human,"binding, KINOMEscan",,100 nM,lower = stronger binding,percent of control,55%
O=C(N/N=C/c1ccc(C[n+]2ccccc2)cc1)N/N=C/c1ccc(C[n+]2ccccc2)cc1,MYC parallel G4 DNA,FRET melting,,"1 µM, DNA 0.2 µM",,ΔTm,3.6 ± 0.3 °C
CC(C)C[C@H](NC(=O)[C@H](Cc1ccc(O)cc1)NC(=O)[C@@H](CCCNC(=N)N)NC(=O)[C@@H](CO)NC(=O)[C@H](Cc1ccccc1)NC(=O)[C@H](CC1CCCCC1)NC(=O)[C@H](CC(=O)O)NC(=O)CN1CCN(CC(=O)O)CCN(CC(=O)O)CCN(CC(=O)O)CC1)C(=O)N[C@@H](Cc1c[nH]c2ccccc12)C(=O)N[C@@H](CO)C(=O)O [copper-64 labelled],,,"human, kidney","concentration not given, 24 h",,activity concentration,1130 Bq/mL and 1290 Bq/mL and 1220 Bq/mL and 1740 Bq/mL and 1650 Bq/mL and 2940 Bq/mL
O=C(N/N=C/c1cc[n+](Cc2ccccc2)c2ccccc12)c1ccc2ccc(C(=O)N/N=C/c3cc[n+](Cc4ccccc4)c4ccccc34)nc2n1,hp2 hairpin duplex DNA,FRET melting,,1 µM,,ΔTm,1.1 ± 0.4 °C
C=CC(=O)N1[C@H](c2ccc3c(c2)OCO3)c2[nH]c3ccccc3c2C[C@@H]1C(=O)N1CCN(C)CC1,human cyclin E1 N112C-3xFLAG:CDK2,"co-IP with TMT proteomics, refers to: NUP98",,"concentration not given, P52948",reference: wild type DMSO,relative co-enrichment,107%
COC1CN([C@H]2CC[C@H]([C@@]3(C)Oc4c(Cl)cc(C(=O)NCc5c(SC)cc(C)[nH]c5=O)c(C)c4O3)CC2)C1,,"RNA-seq, refers to: CREB3L3 mouse homolog","mouse, HT-1376 xenograft, whole blood",dose not given,reference: vehicle,log2 fold change,1.37
O=C(N/N=C/c1ccc2c(ccc[n+]2Cc2ccccc2)c1)c1cccc(C(=O)N/N=C/c2ccc3c(ccc[n+]3Cc3ccccc3)c2)n1,MYC parallel G4 DNA,FRET melting,,"1 µM, DNA 0.2 µM, with: duplex DNA competitor 10 µM",,ΔTm,11.8 ± 0.1 °C
COC1OC(C)C(O)C(OC2OC(C)C(O)C(OC3OC(C)C(O)C(OC4OC(C)C(O)C(OC5OC(C)C(O)C(OC6OC(C)C(O)C(OC7OC(C)C(O)C(OC8OC(C)C(O)C(OC9OC(C)C(O)C(OC%10OC(C)C(O)C(OC%11OC(C)C(O)C(OS(=O)(=O)O)C%11OS(=O)(=O)O)C%10OS(=O)(=O)O)C9OS(=O)(=O)O)C8OS(=O)(=O)O)C7OS(=O)(=O)O)C6OS(=O)(=O)O)C5OS(=O)(=O)O)C4OS(=O)(=O)O)C3OS(=O)(=O)O)C2OS(=O)(=O)O)C1OS(=O)(=O)O (stereo not drawn),,,human plasma,128 µg/mL,,prothrombin time,14.6 ± 0.6 s

# For quick reference, copied from above:
SMILES,target or system,test,test system,setting,how to read,quantity,value
Nc1ncc(-c2cc(-c3cnn(CC(F)(F)F)c3)ncc2F)nc1C(=O)NC1CNCC(F)C1 (stereo not drawn),OSR1,KINOMEscan,,1 µM,reference: DMSO control,remaining binding,100%
CCCC[C@H](NC(=O)COCCOCCNC(=O)CN1CCN(CC(=O)O)CCN(CC(=O)O)CC1)C(=O)N[C@H]1CC(=O)NCCCC[C@@H](C(N)=O)NC(=O)[C@H](Cc2c[nH]c3ccccc23)NC(=O)[C@H](CCCNC(=N)N)NC(=O)[C@@H](Cc2ccccc2)NC(=O)[C@H](Cc2c[nH]cn2)NC1=O [technetium-99m labelled],,,"C57 mouse, pancreas","intravenous, 0.037 MBq, 0.5 h",,tissue uptake,0.45 ± 0.15 %ID/g
